Experimental data gathered from unrelated publications.
Parts stem from different laboratories: compare values within a part only.

Block 1
Target: RNA binding protein fox-1 homolog 2, RRM domain, GST-SBP tag (RBFOX2, Homo sapiens, UniProt O43251-10, residues 100-194)
Technique: RNA Bind-n-Seq
Form: RNA
Medium: in vitro
Tested at: 365 nM
Setting: natural RNA segment, single round, ends assumed
Relative to: no-protein control
Direction: higher = stronger binding
Quantity: RBNS enrichment (R)
Shared flanks, not repeated: GGGAGUUCUACAGUCCGACGAUC … UGGAAUUCUCGGGUGCCAA
Construct (chain): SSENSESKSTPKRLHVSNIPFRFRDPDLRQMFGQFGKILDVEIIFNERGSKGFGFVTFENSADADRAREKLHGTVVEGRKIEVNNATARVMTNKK
AAAUAGGACCGAACAAAGCUACAUGAACACACCUGCUGUAGAGUUGAGGGGACCUCUCACCUGGUCACAUGAGGUUGAGGAGGGCCCAGUGUCCUGGCAGAUGAUCAGUA: 0.45
ACUCCUGUCCCGGGAGCUCUCAAUGCUAUCCUGGAUUGCCUCGUACCAGUCAGAGGUCAGGACUCCAUGAGUCCAGCUGCCACAAAGGGUUCAGCUUGGAGGUGACACCU: 0.377
CAAGGCCUGGUAAAGUCAGGCUCCUGGGAGUGGCAUUUCCUGUUUGACCUCUACCCAUCUCCCAGUUGUUUCACUUCCUCUUCCUGUUCCAGGAGCAGAGGUCUUAUUGG: 0.279
CAAGGGACAGAAGCAAGACAAAAUGCAUGGGCCCUUGUGUUCCUAAUGGUCUUAACUGAAGUCCAACUUCAGUUACAAUUUUCAGAGGCUCGUUGUUUUCCCAAAGCUAA: 2.07
UACCCGAUGUUUACAGAUGCUGUUGGGAAGUUAUCAAUAAAAAGACACCAUUACUAAAAAGGGAAAAGUACACCUAGCUGUGGCUUCUUCAGUCCUUAAGCCAAGCAACC: 0.718
UUGAUGGCCAUCUCUGCCUUUUAUAGUCACCUGACACUGACCUACAUCUCUCGCUUGCUUAAAGUCUUGAGGAAAAUGUUCCUGUUUGCUGCGUGGGCCUGGGUGGGAUG: 4.29
GUAUGAUCACGUAGACCCACCCAACACACUCCUGCACACUGGCCCCGGCCCACGGCACAGCAAUCCCCUGCGCGUGGAUUUCACCUCACCCUUUGUACCAGAUGUUGAGU: 0.657
UUACCUGCACCGCUGUUCUUUGAGCCUCGCUCCACGUAGUGUUCUGUGUUUAUCCACCGGUAGCGAUGCCCACCUUCCAGCCGGGAGAAAUAAAUGGUUUAUAAGAGACC: 0.353

Block 2
Target: Sal-like protein 4, full length isoform A (SALL4, Homo sapiens, UniProt Q9UJQ4, residues 1-1053)
Sequence of UniProt Q9UJQ4 (whole entry, looked up): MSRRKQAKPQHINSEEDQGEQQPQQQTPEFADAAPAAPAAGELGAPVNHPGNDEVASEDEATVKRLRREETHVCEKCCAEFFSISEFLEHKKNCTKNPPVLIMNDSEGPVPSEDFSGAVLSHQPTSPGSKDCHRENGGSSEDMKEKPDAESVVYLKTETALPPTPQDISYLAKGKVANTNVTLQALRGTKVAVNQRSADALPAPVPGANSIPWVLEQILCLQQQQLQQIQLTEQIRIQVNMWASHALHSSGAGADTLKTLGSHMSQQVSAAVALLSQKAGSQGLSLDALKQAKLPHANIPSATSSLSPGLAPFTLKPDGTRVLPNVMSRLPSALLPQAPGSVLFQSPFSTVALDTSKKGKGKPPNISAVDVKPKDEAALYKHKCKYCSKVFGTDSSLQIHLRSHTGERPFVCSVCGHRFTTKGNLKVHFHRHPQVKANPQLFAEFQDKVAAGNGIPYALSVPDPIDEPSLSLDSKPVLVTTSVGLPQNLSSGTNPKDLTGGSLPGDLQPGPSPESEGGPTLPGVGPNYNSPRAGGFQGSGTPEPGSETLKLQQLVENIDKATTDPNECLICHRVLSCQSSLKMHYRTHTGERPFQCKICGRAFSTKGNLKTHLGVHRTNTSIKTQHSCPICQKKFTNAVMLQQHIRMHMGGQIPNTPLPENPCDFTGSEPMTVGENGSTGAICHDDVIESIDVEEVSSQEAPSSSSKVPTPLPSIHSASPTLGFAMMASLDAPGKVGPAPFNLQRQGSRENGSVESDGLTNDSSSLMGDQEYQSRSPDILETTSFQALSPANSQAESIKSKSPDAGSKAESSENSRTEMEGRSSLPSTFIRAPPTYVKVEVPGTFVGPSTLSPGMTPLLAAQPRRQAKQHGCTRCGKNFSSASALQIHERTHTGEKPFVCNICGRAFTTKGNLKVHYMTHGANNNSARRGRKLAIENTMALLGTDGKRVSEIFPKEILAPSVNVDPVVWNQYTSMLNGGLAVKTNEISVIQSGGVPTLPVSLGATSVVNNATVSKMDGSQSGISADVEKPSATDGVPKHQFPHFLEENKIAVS
Technique: universal PBM
Form: double-stranded DNA, one strand shown
Medium: in vitro
Tested at: 600 nM
Setting: 8-mer, flanks averaged, mean of replicates
Direction: higher = stronger binding
Quantity: E-score
CCCAAGCA: -0.00228
GACGGCAA: -0.139
ATTGTACC: 0.11
CCCTACTC: -0.0636
ACCGTGCG: -0.125
ATTCAGTG: 0.117
GAGCGTTA: -0.0342
CTTTTCTC: 0.0897

Block 3
Target: Replicase polyprotein 1ab, nsp13 helicase (rep, Severe acute respiratory syndrome coronavirus 2, UniProt P0DTD1)
Action: inhibitor
Tested at: 20 µM
Quantity: inhibition
O=C(Nc1ncc(SCCN2CCCC2)s1)[C@]1(c2ccc(S(=O)(=O)C3CC3)cc2)C[C@H]1C1CCCCC1: 6.43%
NCCCCCNCC12CC3CC(CC(C3)C1)C2: 8.55%
CC(C)(C)NS(=O)(=O)c1cncc(-c2cc(F)c3nc(N)nn3c2)c1: 1.98%
CCCN(CC1CC1)c1nc(C)nc(Nc2c(Cl)cc(Cl)cc2Cl)c1Cl: 10.4%
Cc1nn(C)c2c1C(c1ccc(C(F)(F)F)cc1)C(C#N)=C(N)O2 (stereo not drawn): -9.83%
Oc1ccc2c3c1O[C@H]1c4[nH]c5ccccc5c4C[C@@]4(O)[C@@H](C2)N(CC2CC2)CC[C@]314: 0.27%
Cc1ccc2c(Cl)cc(Cl)c(O)c2n1: 2.22%
COCCNC(=O)Cn1cnc([N+](=O)[O-])n1: 2.72%
Cc1cc(Cn2nnc3c(-c4ccco4)nc(N)nc32)ccc1N: 5.13%
c1ccc2c(c1)CCCc1cc(NCCN3CCOCC3)nnc1-2: 9.59%
O=C(O)CCC(=O)C(=O)O: 3.83%
CC(C)[C@](O)(c1ccc2cc(OC(F)F)c(OC(F)F)cc2c1)c1c[nH]nn1: -0.44%
COc1ccc(COc2cc3oc(=O)c4cc(C(C)O)ccc4c3cc2OC)cc1 (stereo not drawn): 5.02%
C[C@]1(Cn2ccnn2)[C@H](C(=O)O)N2C(=O)C[C@H]2S1(=O)=O: 0.73%
N=C(N)NCCCCN: -3.59%
CCCCCCCCCCCC(=O)O: 3.69%
Clc1ccc(C2(c3ccc(-c4cn[nH]c4)cc3)CCNCC2)cc1: 10.5%
CC(C)(C)c1cc(C(C)(C)C)c2c(c1)C(O)(C(F)(F)F)C(=O)O2 (racemic): 1.72%
CC(=O)N[C@@H](CSC/C=C(\C)CC/C=C(\C)CCC=C(C)C)C(=O)O: 4.74%
c1ccc2c(-c3cnn4cc(-c5ccc(N6CCNCC6)cc5)cnc34)ccnc2c1: 12.1%
CCCS(=O)(=O)Nc1ccc(F)c(C(=O)c2c[nH]c3ncc(Cl)cc23)c1F: 11.7%
CCCCCCOC(=O)CCC(=O)CN: 2.82%
CN1[C@@H](CC(=O)c2ccccc2)CCC[C@H]1C[C@H](O)c1ccccc1: 5.1%
CCOc1cc(/C=C2/C(=O)N(c3ccccc3)N=C2C)cc(Cl)c1OCC(=O)OC: 1.97%
O=Cc1cn(Cc2ccc(Cl)cc2)c2ccccc12: 1.96%

Block 4
Target: Replicase polyprotein 1ab, main protease (rep, Severe acute respiratory syndrome coronavirus 2, UniProt P0DTD1)
Observed: enzyme activity
Action: inhibitor
Tested at: 20 µM
Setting: hit confirmation
Quantity: inhibition
CC1(C)C(=O)N=C2C1=C(O)C(=O)c1ccccc12: 36%
O=C(O)c1c(Cl)c(Cl)c(Cl)c(Cl)c1-c1c2cc(I)c(=O)c(I)c-2oc2c(I)c(O)c(I)cc12: 122%
O=c1cc(-c2ccc(O)cc2)oc2cc(O)cc(O)c12: 97.5%
Oc1c(I)cc(I)c2cccnc12: 33%

Block 5
Target: Interferon regulatory factor 5, full length, phosphomimetic (IRF5, Homo sapiens, UniProt Q13568-2, residues 1-514, K96S/S451D/S453D/S456D/S462D)
Technique: protein-binding microarray
Form: double-stranded DNA, one strand shown
Medium: in vitro
Tested at: 250 nM
Setting: 60-bp whole probe
Added: salmon DNA 0.4 mg/ml
Relative to: random background probes
Direction: higher = stronger binding
Quantity: log fluorescence
Shared flanks, not repeated: GCCTAGCAC … GTCTTGATTCGCTTGACGCTGCTG
TCATATACACTTATGACACTGTGCTAG: 0.575 z-score
GACGGGTTCCTACTGCTGACGTGCTAG: -0.352 z-score
TTAGATTTCAGTTCCTATTAGTGCTAG: 2.3 z-score
TCAGATTTCAGTTCCGATTAGTGCTAG: 2.78 z-score
GTAGATTTCAGTTTCGATTAGTGCTAG: 10.1 z-score
GCCGGTATCGGTCTCGGGACGTGCTAG: 6.35 z-score
CTCTGGTTCTTGCTTGGTGTCGTGCTA: -0.3 z-score
GACGGTTTCCTTTCCATGACGTGCTAG: 1.2 z-score

Further values, each from its own experiment
CN1C(C(=O)Nc2ccccn2)=C(O)c2ccccc2S1(=O)=O — viability (HEK-293T/ACE2; 10 µM, 16 h; relative to: vehicle): 100%
C=C1[C@H](CO)[C@@H](O)C[C@@H]1n1cnc2c(=O)[nH]c(N)nc21 — GFP-positive cells (HEK-293T; viral entry; 10 µM, 16 h; relative to: vehicle): 85.8%
Brc1c(NC2=NCCN2)ccc2nccnc12.O=C(O)C(O)C(O)C(=O)O — GFP signal (Vesicular stomatitis virus; pseudovirus infection; concentration not given, SARS-CoV-2 spike pseudotype): 100%
O=C(O)c1ccccc1O — viability (HEK-293T/ACE2; 10 µM, 16 h; relative to: vehicle): 99.5%

For quick reference, copied from above (block 4):
CC1(C)C(=O)N=C2C1=C(O)C(=O)c1ccccc12: 36%
O=C(O)c1c(Cl)c(Cl)c(Cl)c(Cl)c1-c1c2cc(I)c(=O)c(I)c-2oc2c(I)c(O)c(I)cc12: 122%
O=c1cc(-c2ccc(O)cc2)oc2cc(O)cc(O)c12: 97.5%
Oc1c(I)cc(I)c2cccnc12: 33%
